Measured values from different studies.
Every numbered part comes from another study and shows a few of its results, in no order. Positions count from the first letter of the parent shown.

Sample 1
Target: Phosphate system positive regulatory protein PHO4, full length, GST-tagged (PHO4, Saccharomyces cerevisiae, UniProt P07270, residues 1-312)
Technique: competition protein-binding microarray
Form: double-stranded DNA, one strand shown
Sample: in vitro
Tested at: 2 µM
Notes: whole 60-bp probe, lowest competitor level
Added: Cbf1 competitor, 0.05 µM
Direction: higher = stronger binding
Shared flanks, not repeated: … GTCTTGATTCGCTTGACGCTGCTG
Target sequence (chain): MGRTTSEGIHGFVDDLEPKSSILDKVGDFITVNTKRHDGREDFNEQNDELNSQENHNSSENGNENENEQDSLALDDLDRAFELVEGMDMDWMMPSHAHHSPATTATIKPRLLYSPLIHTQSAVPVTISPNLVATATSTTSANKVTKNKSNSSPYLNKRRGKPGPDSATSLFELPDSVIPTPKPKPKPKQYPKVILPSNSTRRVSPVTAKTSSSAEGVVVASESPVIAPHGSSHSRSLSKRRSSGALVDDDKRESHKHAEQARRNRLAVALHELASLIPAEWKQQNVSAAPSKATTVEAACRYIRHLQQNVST
| Strand | fluorescence intensity [a.u.] |
| --- | --- |
| GGCGGGTTTCTTCGGCACGCACAGGAGGCACCCCAG | 8300 |
| GACAAGTTACAACTGATCGTGACGGAGAACGGTAAG | 5450 |
| GAATTTACTAACGAACTCGTGTTCCGGACCGCTGGC | 8180 |
| AGGCCACCGGGAAGTCACGTGGCCGGCTGCTGCCTC | 13900 |
| TGCGCAACAACTTTTCACGTGGTGTTATGTCTAGAA | 13300 |
| AAAGCGGTAATTTGCGCTGTGGGTGCAGATATCTAT | 4050 |
| CGTCCTAGTGATTGGTTTGTGGGTGCCATGAGGAAG | 7530 |
| CTAACGAAGGTTTAGCACGTGTTTTACAAGCCAAGT | 17100 |
| CGTCCTAGTGATTGCTTTGTGGGTGCCATGAGGAAG | 7300 |
| CTTCTGTAAATTTGATCCGTGGGTGGACGCGCCCCG | 5670 |
| GTCTTGTCTCATTGTCTCGTGGGTGTCCCCACTTCA | 9600 |
| TCTTGGAATTGCGACCACGTGCAAACCTACGTCTGC | 15000 |
| AGTAGAAACAATAGTATCGTGATGGGATCCCTCTTG | 4930 |
| ACCACAGTGTCGGCCAACGTGCTTTACATTGAAGAT | 14300 |
| CGTCCTAGTGATTGTGATGTGGGTGCCATGAGGAAG | 7190 |
| AGGATGAGGAGGAGTTAGCAGAGGTATTCGCTAAGC | 3010 |
| GAGCTTGTGGGTCAACACGTTTCTTGGGATGAGACA | 13100 |
| TTTTTAATGATTTCGCATGTGGATGTGTTCAGTATC | 8890 |
| CGTCCTAGCGATTCGCACGTGTTTTCCATGAGGAAG | 17100 |
| AGAAGTTTACCAAAACACGTGCAAAGATCCTACGAT | 16000 |
| AAGAAAGTTCCACTTCACGTTTCCCCAGCTTTCCGG | 8930 |
| CGTCCTAGTGATTGTTGCGTGGGTGCCATGAGGAAG | 8340 |
| GATACCAGGAATGTAACCGTGACGGTCAGCATAATC | 5210 |
| TTTACCCCTGGTACCCACGTCCAGTTCGCTTATCTC | 4760 |
| AAAGCGGTAATTTGACACGTGTTTTCACATATCTAT | 18700 |

Sample 2
Target: JUND, bZIP domain (human)
Technique: DHFR protein complementation
Sample: yeast
Notes: single substitutions, most at no-binding floor
Relative to: wild-type JUN-FOS pair
Direction: higher = stronger binding
Parent: JUN, bZIP domain (human); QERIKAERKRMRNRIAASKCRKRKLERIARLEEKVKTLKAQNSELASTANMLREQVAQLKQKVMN; partner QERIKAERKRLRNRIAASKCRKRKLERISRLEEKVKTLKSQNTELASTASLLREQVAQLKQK
| Change | binding fitness [natural log] |
| --- | --- |
| S43F | -0.834 |
| T48R | -1.01 |
| A29G | -0.974 |
| K36L | -0.826 |
| Q41R | -0.825 |
| T37H | -0.573 |
| R53M | -1.18 |
| R30S | -0.521 |
| A29Q | -0.83 |
| M51S | -0.626 |
| A46Y | -1.07 |
| S47W | -0.84 |
| I28W | -1.2 |
| I28K | -1.19 |
| R30L | -0.582 |
| E33F | -1.08 |
| Q41K | -0.911 |
| E33A | -0.677 |
| S47M | -0.595 |
| T48C | -0.954 |
| Q41L | -0.735 |
| V56M | -0.725 |
| A40K | -0.445 |

Sample 3
Target: CCNE2, cyclin fold, Cln2 fusion (human)
Technique: yeast growth competition, sequencing
Sample: yeast
Notes: weak parent motif
Relative to: not given
Direction: higher = stronger binding
Parent: EXO1 docking peptide (human); KPECGRVQRAIFQ; partner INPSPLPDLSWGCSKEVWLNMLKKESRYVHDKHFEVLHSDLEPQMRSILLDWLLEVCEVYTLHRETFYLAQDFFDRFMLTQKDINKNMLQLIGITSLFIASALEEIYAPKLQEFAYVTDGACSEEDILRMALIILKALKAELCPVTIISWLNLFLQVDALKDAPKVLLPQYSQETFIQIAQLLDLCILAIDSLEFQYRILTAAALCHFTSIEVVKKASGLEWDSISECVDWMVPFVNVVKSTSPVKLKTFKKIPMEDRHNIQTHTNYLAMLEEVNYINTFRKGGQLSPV
| Change | normalised enrichment score |
| --- | --- |
| G5A | 0.208 |
| R9A | 0.0678 |
| Q13A | 0.312 |
| I11A | 0.277 |
| C4A | 0.259 |
| P2A | 0.0484 |

Sample 4
Target: UBE2L3 UBC core domain (UniProt P68036)
Sequence of UniProt P68036 (whole entry, looked up): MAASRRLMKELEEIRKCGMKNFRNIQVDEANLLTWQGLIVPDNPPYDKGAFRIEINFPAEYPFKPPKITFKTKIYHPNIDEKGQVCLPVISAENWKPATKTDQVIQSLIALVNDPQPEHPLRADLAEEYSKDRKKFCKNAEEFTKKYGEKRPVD
Technique: yeast two-hybrid
Sample: yeast
Notes: mostly zero background
Relative to: not given
Direction: higher = stronger interaction
B1: RNF2 RING domain (UniProt Q99496); chain SPRSLHSELMCPICLDMLKNTMTTKECLHRFCADCIITALRSGNKECPTCRKKLVSKRSLR
B2: ANAPC11 RING domain (UniProt Q9NYG5); chain GICRMAFNGCCPDCKVPGDDCPLVWGQCSHCFHMHCILKWLHAQQVQQHCPMCRQEWKFKE
B3: MEX3B RING domain (UniProt Q6ZN04); chain SGLRRKGSRDCSVCFESEVIAALVPCGHNLFCMECANRICEKSEPECPVCHTAVTQAIRIF
B4: TRIM54 RING domain (UniProt Q9BYV2); chain SMDNLEKQLICPICLEMFSKPVVILPCQHNLCRKCANDVFQASNPLWQSRGSTTVSSGGRFRCPSCRHEVVLDRHGV
B5: TRIM60 RING domain (UniProt Q495X7); chain ALVNLQEESSCPICLEYLKDPVTINCGHNFCRSCLSVSWKDLDDTFPCPVCRFCFPYKSFRR
B6: MYCBP2 RING domain (UniProt O75592); chain TSLKQDADDMCMICFTEALSAAPAIQLDCSHIFHLQCCRRVLENRWLGPRITFGFISCPICKNKINHIVLKD
B7: RNF122 RING domain (UniProt Q9H9V4); chain AKKLQLYGQTCAVCLEDFKGKDELGVLPCQHAFHRKCLVKWLEVRCVCPMCNKPIASPSEAT
B8: RNF166 RING domain (UniProt Q96A37); chain GDSGLEAQYTCPICLEVYHRPVAIGSCGHTFCGECLQPCLQVPSPLCPLCRLPFDPKKVDK
B9: RNF183 RING domain (UniProt Q96D59); chain EQQGRELEAECPVCWNPFNNTFHTPKMLDCCHSFCVECLAHLSLVTPARRRLLCPLCRQPTVLASGQP
| Sequence | lacZ reporter activity |
| --- | --- |
| B1 (RNF2 RING domain) | 0 |
| B2 (ANAPC11 RING domain) | 0 |
| B3 (MEX3B RING domain) | 0 |
| B4 (TRIM54 RING domain) | 0 |
| YPEEVDDDLICHICLQALLDPLDTPCGHTYCTLCLTNFLVEKDFCPMDRKPLVLQHCKK (LNX1 RING domain (UniProt Q8TBB1)) | 0 |
| PEELAVNNDDCAICWDSMQAARKLPCGHLFHNSCLRSWLEQDTSCPTCRMSLNIADNNR (AMFR RING domain (UniProt Q9UKV5)) | 0 |
| B5 (TRIM60 RING domain) | 0 |
| B6 (MYCBP2 RING domain) | 0 |
| B7 (RNF122 RING domain) | 0 |
| RYRQMEERITCPICIDSHIRLVFQCGHGACAPCGSALSACPICRQPIRDRIQIF (MIB2 RING domain (UniProt Q96AX9)) | 0 |
| LGTKLEAKYLCSACRNVLRRPFQAQCGHRYCSFCLASILSSGPQNCAACVHEGIYEEGIS (TRAF2 RING domain (UniProt Q12933)) | 0 |
| B8 (RNF166 RING domain) | 0 |
| FVKTVEDKYKCEKCHLVLCSPKQTECGHRFCESCMAALLSSSSPKCTACQESIVKDKVF (TRAF3 RING domain (UniProt Q13114)) | 0 |
| B9 (RNF183 RING domain) | 0 |

Repeated from above (sample 2):
| Change | binding fitness [natural log] |
| --- | --- |
| I28W | -1.2 |
| I28K | -1.19 |
| R30L | -0.582 |
| E33F | -1.08 |
| Q41K | -0.911 |
| E33A | -0.677 |
| S47M | -0.595 |
| T48C | -0.954 |
| Q41L | -0.735 |
